Experimental data gathered from unrelated publications.
Each line is one published result; not all experiments were run side by side.
Cell line: OVCAR-3

The γH2AX-positive cells of `C=CCn1c(=O)c2cnc(Nc3ccc(N4CCN(C)CC4)cc3)nc2n1-c1ccc2c(n1)[C@@](O)(CC)CC2` is reported as 15% (flow cytometry; 1 µM, 24 h).
`O=C(c1cc(Cc2n[nH]c(=O)c3ccccc23)ccc1F)N1CCN(C(=O)C2CC2)CC1` gave an IC50 of 0.507 µM.
`CN1CCN(c2ccc3[nH]c(-c4ccc5[nH]c(-c6ccc(C(F)(F)F)cc6)nc5c4)nc3c2)CC1` gave a growth percent of -17.3% (SRB; 10 µM, 48 h).
With `O=C1NC(=NCc2cccs2)S/C1=C\c1ccc2ncccc2c1` the IC50 was over 10 µM (MTS; NCI60 panel).
For `CCCCN1CCN(c2ccc3[nH]c(-c4ccc5[nH]c(-c6cc(OC)c(OC)c(OC)c6)nc5c4)nc3c2)CC1`, the growth percent was 67% (SRB; 10 µM, 48 h).
`Cc1cc(C)n(-c2nc(-c3ccc(Cl)cc3)c3c(NC(=O)c4ccccc4)nnc-3[nH]2)n1` gave a cell growth of 119% (SRB; 10 µM, NCI60 single-dose screen; relative to: untreated).
For `CCCN1CCN(c2ccc3[nH]c(-c4ccc5[nH]c(-c6cc(OC)c(OC)c(OC)c6)nc5c4)nc3c2)CC1`, the growth percent was 76.9% (SRB; 10 µM, 48 h).
For `CC(=O)O[C@H]1C(=O)[C@@]2(C)[C@H]([C@H](OC(=O)c3ccccc3)[C@]3(O)C[C@H](OC(=O)[C@H](O)[C@@H](NC(=O)c4ccccc4)c4ccccc4)C(C)=C1C3(C)C)[C@]1(OC(C)=O)CO[C@@H]1C[C@@H]2O`, the TGI was 0.16 µM (sulforhodamine B; Ovarian cancer; NCI60 screen).
For `COc1ccc(OC)c(-c2nc3ccc(-c4nc5ccc(N6CCN(C)CC6)cc5[nH]4)cc3[nH]2)c1`, the growth percent was 111% (SRB; 10 µM, 48 h).
`COc1ccc2c(c1)c(CC(=O)O)c(C)n2C(=O)c1ccc(Cl)cc1`: growth inhibition “no effect” (WST-1; up to 50 µM, 2 days).
`O=C(Oc1coc(CSc2ncccn2)cc1=O)c1ccc([N+](=O)[O-])cc1` gave an inhibition of 40% (cell migration, Transwell; 30 µM, 7 to 8 h, added: apelin).
`C#C[C@@]1(O)[C@@H](CO)O[C@@H](n2ccc3c(N)ncnc32)[C@@H]1O` has a TGI of 12 µM (SRB; NCI-60 screen).
For `Cn1cncc1C1=CN(c2ncnc3[nH]cnc23)CCS1`, the GI50 was 28.8 µM (ovarian cancer).
`O=C(Nc1nnc2n3c(Cc4ccccc4)n[nH]c3nc(-c3ccc(Cl)cc3)c1-2)c1ccccc1` has a cell growth of 109% (SRB; 10 µM, NCI60 single-dose screen; relative to: untreated).
With `CCCCN1CCN(c2ccc3[nH]c(-c4ccc5[nH]c(-c6ccc(OCC)cc6)nc5c4)nc3c2)CC1` the growth percent was -18% (SRB; 10 µM, 48 h).
With `O=C(Nc1nnc2n3c(nc(-c4ccc(Cl)cc4)c1-2)SCC3=O)c1ccccc1` the cell growth was 104% (SRB; 10 µM, NCI60 single-dose screen; relative to: untreated).
`CCCCN1CCN(c2ccc3nc(-c4ccc5nc(-c6cc(OC)ccc6OC)[nH]c5c4)[nH]c3c2)CC1` has a growth percent of 116% (SRB; 10 µM, 48 h).
For `Cc1cc(=O)[nH]n1-c1nc(-c2ccc(Cl)cc2)c2c(NC(=O)c3ccccc3)nnc-2[nH]1`, the cell growth was 88.8% (SRB; 10 µM, NCI60 single-dose screen; relative to: untreated).
The EC50 of `COc1cnc2cccc(N3CCc4c(cc(Cn5ccnc5C)cc4-c4cn(C)nc4C(F)(F)F)C3=O)c2c1` is reported as 4.35 µM (cell growth, inhibitor; 120 h).
For `Cc1cc(-c2ccccc2)n(-c2nc(-c3ccc(Cl)cc3)c3c(NC(=O)c4ccccc4)nnc-3[nH]2)n1`, the cell growth was 83.6% (SRB; 10 µM, NCI60 single-dose screen; relative to: untreated).
For `C#C[C@@]1(O)[C@@H](CO)O[C@@H](n2cc(F)c3c(N)ncnc32)[C@@H]1O`, the TGI was over 100 µM (SRB; NCI-60 screen).

Excerpt of the above:
For `CCCCN1CCN(c2ccc3[nH]c(-c4ccc5[nH]c(-c6cc(OC)c(OC)c(OC)c6)nc5c4)nc3c2)CC1`, the growth percent was 67% (SRB; 10 µM, 48 h).
`Cc1cc(C)n(-c2nc(-c3ccc(Cl)cc3)c3c(NC(=O)c4ccccc4)nnc-3[nH]2)n1` gave a cell growth of 119% (SRB; 10 µM, NCI60 single-dose screen; relative to: untreated).
For `CCCN1CCN(c2ccc3[nH]c(-c4ccc5[nH]c(-c6cc(OC)c(OC)c(OC)c6)nc5c4)nc3c2)CC1`, the growth percent was 76.9% (SRB; 10 µM, 48 h).
